# Published values of several laboratories.
# Each line is one published result; not all experiments were run side by side. ± marks the error that the study gave.
# CDK2: Cyclin-dependent kinase 2 (CDK2, Homo sapiens, UniProt P24941)
# CDK2 with cyclin A2: Cyclin-dependent kinase 2, with cyclin A2 (CDK2, Homo sapiens, UniProt P24941)
SMILES,target,assay,system,conditions,scale,measurement,value
C=CC(=O)N1CCC([C@@H]2CCNc3c(C(N)=O)c(-c4ccc(Oc5ccccc5)cc4)nn32)CC1,"Cyclin-dependent kinase 2, with cyclin A1 (CDK2, Homo sapiens, UniProt P24941)","kinase activity, inhibitor, HotSpot radiometric",,"100 nM, with: ATP 10 µM",,remaining activity,96.5 ± 2.6%
CC[C@@H]1[C@H](F)C(=O)N[C@@H]1COc1nccc2cc(C(N)=O)c(OC)cc12,CDK2,"ATP-site probe binding, ActivX profiling",THP-1 cell lysate,"0.01 mM, Lys1 site",,inhibition,1.9%
C[C@@H](c1ccc(-n2cnc3c(N)ncnc32)cc1)N1CCc2nn(C)c(Cc3ccccc3)c2C1=O,CDK2,KINOMEscan,,0.1 µM,relative to: DMSO control,remaining binding,78%
CC(C)=CCc1c(O)c(CC=C(C)C)c2oc3c(O)ccc(O)c3c(=O)c2c1O,"Cyclin-dependent kinase 2, with cyclin E1 (CDK2, Homo sapiens, UniProt P24941)","kinase activity, inhibitor",,concentration not given,,inhibition,inactive
CC(=O)Nc1c(N)nc(SCC(=O)N/N=C/c2ccc([N+](=O)[O-])cc2)[nH]c1=O,CDK2 with cyclin A2,kinase activity,,10 nM,,remaining activity,85%
C=CC(=O)N1CCC(COCC(=O)N2CCN(c3nc(-c4cnc(N)nc4C(F)F)nc(N4CCOC[C@@H]4C)n3)CC2)CC1,CDK2,KINOMEscan,,1 µM,relative to: DMSO control,remaining binding,100%
CNC(=O)c1cc(Oc2ccc(NC(=O)Nc3ccc(Cl)c(C(F)(F)F)c3)cc2)ccn1,CDK2 with cyclin A2,"kinase activity, inhibitor, ADP-Glo kinase",,0.2 nM,,remaining activity,87.7%
CCCOc1ccc(OC)c(F)c1C(=O)c1ccc(C(=O)N[C@@H]2CNC[C@H]2NC(=O)c2ccc3[nH]ncc3c2)cc1,"Cyclin-dependent kinase 2, with cyclin A (CDK2, Homo sapiens, UniProt P24941)",enzyme activity,,10 µM,,remaining activity,90%
CC(=O)Nc1c(N)nc(SCC(=O)NN)[nH]c1=O,CDK2 with cyclin A2,kinase activity,,1000 nM,,remaining activity,27%
Cc1ncsc1-c1ccc([C@H](C)NC(=O)[C@@H]2C[C@@H](O)CN2C(=O)[C@@H](NC(=O)CCCCCCCCC(=O)N(CCO)CCCOc2ccc3c(Nc4cc(CC(=O)Nc5cccc(F)c5)[nH]n4)ncnc3c2)C(C)(C)C)cc1,CDK2,"degradation, Western blot",PC-3 and HPAF-II,"1 µM, 24 h",,protein level,no effect

# Some of these lines once more:
SMILES,target,assay,system,conditions,scale,measurement,value
C[C@@H](c1ccc(-n2cnc3c(N)ncnc32)cc1)N1CCc2nn(C)c(Cc3ccccc3)c2C1=O,CDK2,KINOMEscan,,0.1 µM,relative to: DMSO control,remaining binding,78%
